Published values from different studies.
Each numbered part is a random draw from the data of one study; scales do not carry over between parts.

Series 1
Target: RNA binding protein fox-1 homolog 2, RRM domain, GST-SBP tag (RBFOX2, Homo sapiens, UniProt O43251-10, residues 100-194)
Method: RNA Bind-n-Seq
Molecule type: RNA
Sample: in vitro
Concentration: 365 nM
Notes: natural RNA segment, single round, ends assumed
Reference: no-protein control
Reading: higher = stronger binding
Residues (chain): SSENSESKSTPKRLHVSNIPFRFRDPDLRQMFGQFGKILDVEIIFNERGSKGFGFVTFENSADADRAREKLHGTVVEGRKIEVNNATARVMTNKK
Strand	RBNS enrichment (R)
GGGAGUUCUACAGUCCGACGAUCUGGCCUCUUGUGAAGCUCAUGAAACUUUAACAAGUGUUUGACCUUACAGCUUCCUCUGGGAGGUCGUGUAGACCCAGUGGGCAAGCAGGACAAGGGCCCAGAACUGAAACUGGAAUUCUCGGGUGCCAA	0.267
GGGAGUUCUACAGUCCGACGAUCGAGUCUAUGCCCUAUAAGCUCAACGCCAAAACUGGCCUCAUUGACUACAACCAGCUGGCACUGACUGCUCGACUUUUCCGGCCACGGCUCAUCAUAGCUGGCACCAGCGCUGGAAUUCUCGGGUGCCAA	0.431
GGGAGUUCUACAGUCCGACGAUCAUCUUUUUUUAAUGGAAUGUGGUACAAAUUGUUCAUGUUACCAAAGCAAUAUUUCCCUGGAAUUUAAUUCAAAGUUUGUGGCAUACAACCUGAGCCUUUUCUUAUAUAAGUGGAAUUCUCGGGUGCCAA	0.916
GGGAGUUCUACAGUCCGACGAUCUUCCACAUUACAAGUUGAUGUUAUAGGUGGGGGCUGGAAUUGUUGCCCUGGAUGUGGGGACCAAGGUACAAUCUAACCAUGGGCCCCCACAAGGCUUCCUGAAAUCAAAUUGGAAUUCUCGGGUGCCAA	1.45
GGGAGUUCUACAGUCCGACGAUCACGUGAAGUCAGCCCACACCAGCCAAACCCUCGUGGAAGAUCUGCUGCAACCAUUAUCUUUGUUCUUGAGUUCAUCAUGCAUUUAAAAUGAGAUGCAAGAGCAUUUAGCAUGGAAUUCUCGGGUGCCAA	0.815
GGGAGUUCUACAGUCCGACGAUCCACACAAUUGGAUAGUGACAUAGCUAGAGCGCAGAGUUCCUGAUUCCAAGUCACCUGUGCUUUCUGGGACCAAAGAAUGGGCACCUGCUGGAGUCCGGGCAGAGCUUUCUUGGAAUUCUCGGGUGCCAA	0.326
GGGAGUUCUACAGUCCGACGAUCAGAUUGUGGGAGCUUCGCUGAACGUUAAUGUGUAGUAAAUGCACCUCCUUGUAUUCCCACUUUCGUAGUCAUUUCGGUUCUGAUCUUGUCAAACCCAGCCUGACCGCUUCUGGAAUUCUCGGGUGCCAA	0.61
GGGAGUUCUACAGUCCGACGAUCUUUUAAAUAAUUACUAGCAACUCUGUGACUACAUUUAUUUUUAUUUUUUUUAGAGACAGGAUCUUGCUAUGUUGCCCAGGCUAGAGAGCAGUGGCUUUUCACAGACAAAGUGGAAUUCUCGGGUGCCAA	0.787

Series 2
Target: Histone acetyltransferase KAT6A, both winged helices, GST fusion (KAT6A, Homo sapiens, UniProt Q92794, residues 1-181)
Method: protein binding microarray
Molecule type: double-stranded DNA, one strand shown
Sample: in vitro
Concentration: not given
Notes: 8-mer, flanks averaged, mean of 2 arrays, mostly near background
Reference: not given
Reading: higher = stronger binding
Construct (chain): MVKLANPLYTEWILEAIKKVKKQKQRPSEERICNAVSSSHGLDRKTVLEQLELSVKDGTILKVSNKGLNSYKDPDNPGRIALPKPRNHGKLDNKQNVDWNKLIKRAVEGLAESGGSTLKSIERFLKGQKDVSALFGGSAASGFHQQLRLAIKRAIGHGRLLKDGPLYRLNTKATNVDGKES
Strand	E-score
ACCCCCGA	-0.0166
AGTGTATG	0.0572
ATAGCGAT	0.0265
GATAACGC	0.239
AAATTCAC	-0.038
CGCTTGCA	0.122
GTCTGCGA	0.0105
CCCGAGGC	0.159
ATACTGCG	0.12
TACGACAA	-0.0835
CGAATTCG	0.183
GGCAAATA	0.0497
AGCTTTAA	-0.0516
CCTCGTTA	-0.226
ACCAATAG	-0.169
AAACTAAA	-0.174
ACTCGTGA	-0.0909
ATCGCATC	0.0795
ACTTGTAG	-0.0607
AGTCAAAC	-0.0255
AAAAGCTT	0.157
CCCTAACA	-0.152
GCCCCGAA	0.0602

Series 3
Target: RING finger protein unkempt homolog, zinc fingers 1-6, GST-SBP tag (UNK, Homo sapiens, UniProt Q9C0B0, residues 30-357)
Method: RNA Bind-n-Seq
Molecule type: RNA
Sample: in vitro
Concentration: not given
Notes: RNA with constant flanks, human and mouse sites, ends assumed
Reference: input RNA pool
Reading: higher = stronger binding
Construct (chain): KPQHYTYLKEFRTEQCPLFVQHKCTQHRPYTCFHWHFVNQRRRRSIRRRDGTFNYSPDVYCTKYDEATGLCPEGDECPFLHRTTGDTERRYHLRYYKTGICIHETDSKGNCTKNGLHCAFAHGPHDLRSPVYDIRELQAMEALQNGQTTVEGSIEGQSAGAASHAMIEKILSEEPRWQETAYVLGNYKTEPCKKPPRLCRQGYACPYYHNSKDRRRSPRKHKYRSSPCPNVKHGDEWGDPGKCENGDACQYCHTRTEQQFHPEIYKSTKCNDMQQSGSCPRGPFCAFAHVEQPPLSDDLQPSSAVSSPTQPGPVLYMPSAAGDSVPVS
Strand	bound/input enrichment
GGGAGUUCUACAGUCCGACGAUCGGAUUGGCAGAUGCAGGUCUAGAUUUAAAAGGAACUUGCAUUAGUGAAAGUGAAGAAUGUGAUUUCUCCACUGUUAUAGACACACCAGCAGCAAAUUAUCUAUCUAAUGGUUGUGAUUCCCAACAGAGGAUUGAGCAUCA	0.75 ratio
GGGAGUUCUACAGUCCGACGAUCCAUCAACAGUAUGUGCAACGUAUAGAGAAACAGUUUCUUUUGUAUGCCUACUGGAUAGGCUUAGGAAUUUUGUCUUCUGUUGGGCUUGGAACAGGGCUGCACACCUUUCUGCUUUAUCUGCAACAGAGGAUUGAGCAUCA	0.717 ratio
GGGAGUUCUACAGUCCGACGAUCUUGGGCACAGGAUCUGGUCUUAACUUAAGAAUGGCUGGACCUCAAGGCCUCGAUCUUGCCCCCAUUCUAAGAGCAGCAGGUCUUUUAGGAGCAAAUUCAGCUUCUUUCUCACAGGCUUCUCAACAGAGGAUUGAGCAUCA	0.0824 ratio
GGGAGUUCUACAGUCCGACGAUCCCAAUUGACAACGGUUCAAAAAUCACCAACUACCUUUUAGAGUGGGAUGAGGGAAAAAGAAAUAGUGGUUUCAGACAGUGCUUCUUCGGGAGCCAGAAGCACUGCAAGUUGACAAAGCUUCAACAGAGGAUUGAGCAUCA	0.657 ratio
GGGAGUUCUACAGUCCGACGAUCUCUCUUGGGAUGUAAUACAGAUAACACUUUUUAUUUGAUUUGGGGAAGGUAUGCGAGACCCCUUCUUUCUUUUGUUUUCCUCAGAGUUUGCUGGAGGUCUUGUGCUGUGUUGUUUCCAACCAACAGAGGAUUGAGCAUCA	0.229 ratio
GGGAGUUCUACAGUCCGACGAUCUUGGCAGAAGGUGUCAUUUUAAGACGAGUAGGCGAAGCAAGGACUCAACACGGAGGUAGUCACGUUUCCCGGAAAUCCGAACACUUGAGUGUCAGACCACAGACUGCGUUGGAAGAAAACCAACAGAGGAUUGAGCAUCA	0.185 ratio
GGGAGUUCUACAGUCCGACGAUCCAAAAAAGCUAUGAGGAAGAGCUCCUCCCCUUCCUUGAGUAACUGCAACUCCGAUCUUGCUAGCAAAAUAUUUGGAAUUCCACUUGAUGAGCUGCAGCAGGGAGGACAUCCAGACAAUGACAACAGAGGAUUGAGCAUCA	0.47 ratio
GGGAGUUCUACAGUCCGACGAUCAAACAAAUAGGUAUAAAUAAAAAAUCGGUAAAAUCUGCAAAAGAUGGCACAUCUCCAGAAGAAGAAAUUGAAAUAGAAAGACAAAAGGCUGAAAUGGCUUUGCUUAUGAUGGAUGAGGACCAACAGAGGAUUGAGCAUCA	31 ratio

Series 4
Target: POU domain, class 5, transcription factor 1, POU domain (Pou5f1, Mus musculus, UniProt P20263, residues 131-289)
Sequence of UniProt P20263 (131-289, looked up): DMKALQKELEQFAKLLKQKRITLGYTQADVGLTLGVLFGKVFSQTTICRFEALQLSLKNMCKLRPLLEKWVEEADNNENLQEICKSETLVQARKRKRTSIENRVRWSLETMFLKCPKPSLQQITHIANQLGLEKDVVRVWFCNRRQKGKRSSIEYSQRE
Method: Spec-seq
Molecule type: double-stranded DNA, one strand shown
Sample: in vitro
Concentration: not given
Notes: whole probe, mean of replicates
Reference: not given
Reading: lower = stronger binding
Shared flanks, not repeated: GAGTCGTCTCGTCAGCAC … CCGTAGAGCACTCAGGTC
Strand	relative binding energy [ln ratio]
ATCGCAAT	0.485
ATTTCCAT	-1.21
ATGCGTTA	0.164
ATGCCGCA	0.789
ATGTGAAT	-0.163
ATGAGAAT	0.253
ATGCAGGG	0.278
ATATAGAT	0.289
TTTGTAAT	0.21
GCGCTAAT	0.495
ATGCCAGG	0.859
TGAGTAAT	0.744
ATGCAAAA	-1.29
ATCAAAAT	-0.163
ATGTGTAT	0.258
CGGGTAAT	0.951
ATGCTCTG	0.931
TGGATAAT	0.591
ATGCACAC	-0.0185
ATGCGTGA	0.0938
ATGCGATC	0.43
ATGCCTCG	0.322

Some of these lines once more (series 2):
Strand	E-score
GATAACGC	0.239
AGCTTTAA	-0.0516
ACCAATAG	-0.169
AAATTCAC	-0.038
CCCGAGGC	0.159
TACGACAA	-0.0835
CCCTAACA	-0.152
AAAAGCTT	0.157
ATCGCATC	0.0795
